Assay results from different studies.
Each numbered part is a random draw from the data of one study; scales do not carry over between parts. “And” joins repeats or separate records; there may be more than shown.
UniProt P00519, sequence (whole entry, unmodified, looked up): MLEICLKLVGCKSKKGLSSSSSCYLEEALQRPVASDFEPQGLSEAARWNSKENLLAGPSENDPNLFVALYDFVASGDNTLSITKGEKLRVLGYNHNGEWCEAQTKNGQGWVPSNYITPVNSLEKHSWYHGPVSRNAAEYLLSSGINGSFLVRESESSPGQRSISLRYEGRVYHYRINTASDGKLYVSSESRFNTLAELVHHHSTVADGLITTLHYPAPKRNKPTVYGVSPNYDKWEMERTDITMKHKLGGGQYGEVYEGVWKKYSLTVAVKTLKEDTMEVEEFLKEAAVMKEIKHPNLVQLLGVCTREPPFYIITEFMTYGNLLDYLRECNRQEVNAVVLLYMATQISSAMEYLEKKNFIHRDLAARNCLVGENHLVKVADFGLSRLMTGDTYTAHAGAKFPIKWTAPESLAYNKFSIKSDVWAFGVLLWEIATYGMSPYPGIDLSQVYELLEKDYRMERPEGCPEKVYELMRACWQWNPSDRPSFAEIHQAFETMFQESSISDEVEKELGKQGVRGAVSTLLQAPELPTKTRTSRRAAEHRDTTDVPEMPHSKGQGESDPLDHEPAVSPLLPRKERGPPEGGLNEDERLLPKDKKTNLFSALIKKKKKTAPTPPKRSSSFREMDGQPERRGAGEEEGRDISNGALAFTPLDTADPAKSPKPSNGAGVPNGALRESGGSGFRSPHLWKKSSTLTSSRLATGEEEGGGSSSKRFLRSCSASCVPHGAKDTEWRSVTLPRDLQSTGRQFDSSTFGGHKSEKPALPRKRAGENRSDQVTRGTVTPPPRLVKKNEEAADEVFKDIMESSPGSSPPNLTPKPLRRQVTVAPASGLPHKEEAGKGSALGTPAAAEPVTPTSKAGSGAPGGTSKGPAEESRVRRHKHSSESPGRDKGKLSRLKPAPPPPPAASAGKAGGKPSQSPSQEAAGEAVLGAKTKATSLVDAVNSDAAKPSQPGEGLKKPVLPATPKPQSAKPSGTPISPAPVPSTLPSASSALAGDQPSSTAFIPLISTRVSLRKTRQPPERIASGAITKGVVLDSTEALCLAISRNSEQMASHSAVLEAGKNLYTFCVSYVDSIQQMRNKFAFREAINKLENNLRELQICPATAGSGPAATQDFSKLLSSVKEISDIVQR
UniProt Q8IYT8, sequence (whole entry, looked up): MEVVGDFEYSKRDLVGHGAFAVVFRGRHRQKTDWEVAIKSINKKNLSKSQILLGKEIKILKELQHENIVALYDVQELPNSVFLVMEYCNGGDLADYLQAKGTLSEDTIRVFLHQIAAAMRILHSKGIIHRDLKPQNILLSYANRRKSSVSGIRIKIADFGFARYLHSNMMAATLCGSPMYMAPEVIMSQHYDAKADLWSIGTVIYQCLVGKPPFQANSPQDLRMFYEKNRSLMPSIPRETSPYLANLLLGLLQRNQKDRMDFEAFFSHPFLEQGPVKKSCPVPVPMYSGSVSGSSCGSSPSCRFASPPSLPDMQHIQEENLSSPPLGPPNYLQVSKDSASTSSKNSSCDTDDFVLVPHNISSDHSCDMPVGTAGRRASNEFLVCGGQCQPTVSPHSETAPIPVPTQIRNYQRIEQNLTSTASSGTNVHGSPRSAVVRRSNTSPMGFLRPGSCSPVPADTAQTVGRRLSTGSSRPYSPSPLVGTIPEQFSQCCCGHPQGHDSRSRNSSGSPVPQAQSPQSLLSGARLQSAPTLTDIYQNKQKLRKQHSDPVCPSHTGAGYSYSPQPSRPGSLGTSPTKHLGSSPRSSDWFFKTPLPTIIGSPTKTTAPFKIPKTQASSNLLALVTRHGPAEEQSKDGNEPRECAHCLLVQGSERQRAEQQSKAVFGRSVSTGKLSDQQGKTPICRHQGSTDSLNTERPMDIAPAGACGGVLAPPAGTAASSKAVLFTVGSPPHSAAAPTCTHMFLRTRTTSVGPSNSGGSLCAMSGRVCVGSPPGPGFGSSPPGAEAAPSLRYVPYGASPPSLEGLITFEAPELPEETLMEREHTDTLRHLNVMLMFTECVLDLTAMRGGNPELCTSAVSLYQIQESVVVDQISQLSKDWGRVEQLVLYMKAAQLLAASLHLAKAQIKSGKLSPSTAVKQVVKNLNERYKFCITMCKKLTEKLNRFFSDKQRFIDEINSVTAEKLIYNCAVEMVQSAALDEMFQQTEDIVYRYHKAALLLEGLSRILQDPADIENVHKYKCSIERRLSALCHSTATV
UniProt Q9BX84, sequence (whole entry, looked up): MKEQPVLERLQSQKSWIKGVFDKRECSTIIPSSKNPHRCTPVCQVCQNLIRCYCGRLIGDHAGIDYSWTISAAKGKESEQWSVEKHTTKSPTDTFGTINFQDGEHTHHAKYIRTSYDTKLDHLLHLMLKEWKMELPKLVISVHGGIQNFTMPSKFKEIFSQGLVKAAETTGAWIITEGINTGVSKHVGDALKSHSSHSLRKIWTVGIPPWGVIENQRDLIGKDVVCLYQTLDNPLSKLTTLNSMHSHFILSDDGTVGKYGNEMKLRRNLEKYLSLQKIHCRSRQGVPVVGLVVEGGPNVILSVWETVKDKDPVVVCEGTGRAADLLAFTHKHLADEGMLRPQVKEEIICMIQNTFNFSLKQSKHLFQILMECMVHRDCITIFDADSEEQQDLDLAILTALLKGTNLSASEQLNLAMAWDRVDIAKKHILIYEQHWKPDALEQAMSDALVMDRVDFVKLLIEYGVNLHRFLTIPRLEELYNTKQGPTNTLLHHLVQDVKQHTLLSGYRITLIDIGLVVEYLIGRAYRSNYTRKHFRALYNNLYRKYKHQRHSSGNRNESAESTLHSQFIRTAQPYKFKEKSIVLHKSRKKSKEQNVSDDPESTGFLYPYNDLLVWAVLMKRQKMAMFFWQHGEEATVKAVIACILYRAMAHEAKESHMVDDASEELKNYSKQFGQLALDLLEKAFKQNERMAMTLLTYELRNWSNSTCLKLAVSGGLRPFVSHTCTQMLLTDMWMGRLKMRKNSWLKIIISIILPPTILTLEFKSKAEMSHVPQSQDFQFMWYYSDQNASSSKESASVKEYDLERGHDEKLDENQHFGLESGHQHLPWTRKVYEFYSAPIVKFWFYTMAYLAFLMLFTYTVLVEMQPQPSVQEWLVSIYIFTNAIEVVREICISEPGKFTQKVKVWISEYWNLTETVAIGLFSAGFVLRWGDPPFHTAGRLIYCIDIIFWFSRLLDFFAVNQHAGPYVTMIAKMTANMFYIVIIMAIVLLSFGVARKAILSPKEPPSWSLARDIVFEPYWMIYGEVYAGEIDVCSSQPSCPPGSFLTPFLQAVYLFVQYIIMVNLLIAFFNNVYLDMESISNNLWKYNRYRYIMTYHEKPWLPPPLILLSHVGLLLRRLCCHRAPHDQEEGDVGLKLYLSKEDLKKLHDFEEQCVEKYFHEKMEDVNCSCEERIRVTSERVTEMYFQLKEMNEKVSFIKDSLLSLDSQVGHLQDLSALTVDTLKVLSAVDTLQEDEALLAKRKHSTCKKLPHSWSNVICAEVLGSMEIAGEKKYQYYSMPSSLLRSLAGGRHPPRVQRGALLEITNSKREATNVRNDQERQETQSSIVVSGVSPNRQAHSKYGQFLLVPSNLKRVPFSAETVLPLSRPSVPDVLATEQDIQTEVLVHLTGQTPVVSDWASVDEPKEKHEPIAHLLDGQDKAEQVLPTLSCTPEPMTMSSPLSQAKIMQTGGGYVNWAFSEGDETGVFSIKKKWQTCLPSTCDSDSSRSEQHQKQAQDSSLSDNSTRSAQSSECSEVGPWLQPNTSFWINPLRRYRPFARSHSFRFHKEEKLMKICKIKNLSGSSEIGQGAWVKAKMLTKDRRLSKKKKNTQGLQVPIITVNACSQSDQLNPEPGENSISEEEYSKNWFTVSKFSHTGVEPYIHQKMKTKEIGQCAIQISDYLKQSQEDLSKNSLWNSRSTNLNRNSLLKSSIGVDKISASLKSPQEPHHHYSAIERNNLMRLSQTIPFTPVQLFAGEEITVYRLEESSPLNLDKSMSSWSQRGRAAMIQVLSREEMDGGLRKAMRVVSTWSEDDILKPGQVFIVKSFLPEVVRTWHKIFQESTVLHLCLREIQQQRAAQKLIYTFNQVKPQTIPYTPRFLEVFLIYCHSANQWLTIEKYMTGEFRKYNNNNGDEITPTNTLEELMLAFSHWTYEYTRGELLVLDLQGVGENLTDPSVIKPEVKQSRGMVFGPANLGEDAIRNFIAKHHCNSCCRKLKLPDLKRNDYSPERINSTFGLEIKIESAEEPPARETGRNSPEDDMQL
UniProt Q9P0L2, sequence (whole entry, looked up): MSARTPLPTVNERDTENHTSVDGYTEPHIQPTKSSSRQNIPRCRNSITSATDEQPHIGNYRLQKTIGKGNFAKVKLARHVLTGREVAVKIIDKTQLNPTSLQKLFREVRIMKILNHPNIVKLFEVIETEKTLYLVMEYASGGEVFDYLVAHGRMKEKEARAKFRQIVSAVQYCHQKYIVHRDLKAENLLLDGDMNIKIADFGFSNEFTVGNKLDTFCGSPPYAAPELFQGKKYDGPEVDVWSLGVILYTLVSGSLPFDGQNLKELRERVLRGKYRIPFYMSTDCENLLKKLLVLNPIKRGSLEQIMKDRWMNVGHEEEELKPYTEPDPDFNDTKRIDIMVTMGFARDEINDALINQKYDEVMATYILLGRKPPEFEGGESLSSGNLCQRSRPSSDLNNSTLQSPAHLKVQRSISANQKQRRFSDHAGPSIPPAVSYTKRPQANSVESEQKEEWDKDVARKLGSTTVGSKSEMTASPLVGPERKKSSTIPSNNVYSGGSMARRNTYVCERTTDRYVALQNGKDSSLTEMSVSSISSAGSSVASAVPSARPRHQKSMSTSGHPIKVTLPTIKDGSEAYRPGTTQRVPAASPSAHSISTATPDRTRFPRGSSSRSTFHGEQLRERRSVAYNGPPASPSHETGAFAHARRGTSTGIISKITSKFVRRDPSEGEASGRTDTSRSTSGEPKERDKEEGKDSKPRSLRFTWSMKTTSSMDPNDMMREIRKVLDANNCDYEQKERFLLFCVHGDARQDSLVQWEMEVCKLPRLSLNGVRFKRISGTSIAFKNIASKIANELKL

Block 1 — method: Incucyte 3D growth; tested at: 30 µM; reading: higher = more growth; measurement: spheroid area
Structure (SMILES): CC(C)(C(=O)O)[C@H](NC(=O)Cc1cccc(I)c1)c1ccc2oc(=O)[nH]c2c1
MEL-JUSO; 282.52 h: 2.24e+07 a.u. and 2.39e+07 a.u. and 2.38e+07 a.u. and 3.64e+07 a.u. and 1.81e+07 a.u.
MEL-JUSO; 0.52 h: 1.82e+07 a.u. and 1.4e+07 a.u. and 1.44e+07 a.u. and 1.54e+07 a.u. and 1.77e+07 a.u. and 1.98e+07 a.u.
NCI-H1437; 96 h: 2.44e+07 a.u. and 2.49e+07 a.u. and 2.57e+07 a.u. and 3.07e+07 a.u. and 2.99e+07 a.u. and 2.88e+07 a.u.
IPC-298; 264 h: 4.05e+07 a.u. and 2.81e+07 a.u. and 4.26e+07 a.u. and 3.13e+07 a.u. and 3.5e+07 a.u. and 2.66e+07 a.u.
A375; 402.52 h: 1.65e+08 a.u. and 1.72e+08 a.u. and 1.61e+08 a.u. and 1.77e+08 a.u. and 1.86e+08 a.u. and 1.55e+08 a.u.
KP-4; 96 h: 1.88e+07 a.u. and 1.79e+07 a.u. and 1.71e+07 a.u. and 1.83e+07 a.u. and 1.49e+07 a.u. and 1.42e+07 a.u.
IPC-298; 36 h: 2.68e+07 a.u. and 2.11e+07 a.u. and 1.08e+07 a.u. and 2.49e+07 a.u. and 2.61e+07 a.u. and 1.84e+07 a.u.

Block 2 — method: PRP-column chromatography; measurement: log k' (60)
CCOC(=O)[C@@H]1CSCC(=O)N[C@H](CC)C(=O)N(CC(C)C)CC(=O)N[C@@H](CC(C)C)C(=O)N(C)[C@H](C)C(=O)N(C)[C@@H](C)C(=O)N[C@H](CC(C)C)C(=O)N(C)[C@H](C)C(=O)N[C@@H](CC(C)C)C(=O)N1C: 0.824
CCOC(=O)[C@@H]1CSCC(=O)N[C@H](CC)C(=O)N(C)[C@@H](C)C(=O)N[C@@H](CC(C)C)C(=O)N2CCC[C@@H]2C(=O)N(CC(C)C)CC(=O)N[C@H](CC(C)C)C(=O)N(C)[C@H](C)C(=O)N[C@@H](CC(C)C)C(=O)N1C: 0.567
CCOC(=O)[C@@H]1CSCC(=O)N[C@H](CC)C(=O)N(CC(C)C)CC(=O)N[C@@H](CC(C)C)C(=O)N2CCC[C@@H]2C(=O)N(C)[C@@H](C)C(=O)N[C@H](CC(C)C)C(=O)N(C)[C@H](C)C(=O)N[C@@H](CC(C)C)C(=O)N1C: 0.603

Block 3 — host: human; matrix: microsomes or S9; tested at: 2 µM; time: 0.5 h; measurement: remaining compound
Cc1ccc(S(=O)(=O)NCc2ccccc2)c(C)c1N(C)S(=O)(=O)c1ccccc1: 15.6%
COC(=O)C1(C(=O)OC)C[C@@H](c2ccccc2)c2ccc(N(C)C)cc2[C@@H]1CC(=O)C(C)(C)C: 1.22%
CC(C)C[C@@H]1N/C(=N/c2ccccc2)N(c2ccccc2)C1=O: 77.9%
C/C(=C\c1ccc(C(=O)O)cc1)CN1CCN(c2ccccn2)CC1: 49.2%
CC(=O)N1c2nc(-c3ccco3)nn2C2(CCCCC2)[C@@H]2CCCC[C@@H]21: 0.372%
COc1c(C)c2c(c(OC)c1C/C=C(\C)CCC(=O)N1CCOCC1)C(=O)OC2: 8.25%
COCCc1noc(C(C)n2ccnc2-c2cc(F)cc(F)c2)n1 (stereo not drawn): 84.5%
CCOC(=O)c1[nH]c(C)c(C(=O)Nc2n[nH]c3cc(Br)ccc23)c1C: 0.3%
COc1ccccc1CNC(=O)c1c(OCC2CC2)cc(=O)n2c1CCCCC2: 2.12%
COc1ccc(CN2Cc3c(Cl)ccnc3C2=O)cc1OC: 0.224%
O=C(C1CCC1)N1CCCC1c1nc(C2CCOCC2)no1 (stereo not drawn): 23.9%
O=C1CCC2(C(=O)N3CCN(c4ncccn4)CC3)CCCC=C2N1C1CCCC1 (stereo not drawn): 5.86%

Block 4 — method: competition with immobilised ligand; tested at: 1 µM; measurement: remaining binding
SMILES: Cc1nccc(COC(=O)N2C[C@@H]3[C@@H](CNC(=O)c4ccc5[nH]nnc5c4)[C@@H]3C2)n1
TGF-beta receptor type-1 (TGFBR1, Homo sapiens, UniProt P36897); cell-free assay: 100%
Ephrin type-A receptor 4 (EPHA4, Homo sapiens, UniProt P54764); cell-free assay: 98%
Protein kinase C iota type (PRKCI, Homo sapiens, UniProt P41743); cell-free assay: 100%
Mitogen-activated protein kinase 8 (MAPK8, Homo sapiens, UniProt P45983); cell-free assay: 84%
Tyrosine-protein kinase ABL1, non-phosphorylated (ABL1, Homo sapiens, UniProt P00519, F317I); binding: 100%
Dual specificity testis-specific protein kinase 1 (TESK1, Homo sapiens, UniProt Q15569); cell-free assay: 98%
eIF-2-alpha kinase GCN2, C-terminal kinase domain (EIF2AK4, Homo sapiens, UniProt Q9P2K8, S808G); cell-free assay: 84%
Phosphatidylinositol 3-kinase C2 domain-containing subunit gamma (PIK3C2G, Homo sapiens, UniProt O75747); cell-free assay: 99%
Protein kinase C theta type (PRKCQ, Homo sapiens, UniProt Q04759); cell-free assay: 91%
Serine/threonine-protein kinase ULK2 (ULK2, Homo sapiens, UniProt Q8IYT8); cell-free assay: 77%
Transient receptor potential cation channel subfamily M member 6 (TRPM6, Homo sapiens, UniProt Q9BX84); cell-free assay: 85%
Receptor-type tyrosine-protein kinase FLT3 (FLT3, Homo sapiens, UniProt P36888, F691L/ITD); cell-free assay: 79%
Serine/threonine-protein kinase ULK1 (ULK1, Homo sapiens, UniProt O75385); cell-free assay: 93%
Rhodopsin kinase GRK1 (GRK1, Homo sapiens, UniProt Q15835); cell-free assay: 100%
Serine/threonine-protein kinase RIO1 (RIOK1, Homo sapiens, UniProt Q9BRS2); cell-free assay: 100%
Serine/threonine-protein kinase MARK1 (MARK1, Homo sapiens, UniProt Q9P0L2); cell-free assay: 84%
Serine/threonine-protein kinase Nek2 (NEK2, Homo sapiens, UniProt P51955); cell-free assay: 100%

Excerpt of the above (block 1):
A375; 402.52 h: 1.65e+08 a.u. and 1.72e+08 a.u. and 1.61e+08 a.u. and 1.77e+08 a.u. and 1.86e+08 a.u. and 1.55e+08 a.u.
IPC-298; 36 h: 2.68e+07 a.u. and 2.11e+07 a.u. and 1.08e+07 a.u. and 2.49e+07 a.u. and 2.61e+07 a.u. and 1.84e+07 a.u.
